{"data": "Measured values from different studies", "B1": "enzyme A477T (Populus trichocarpa, UniProt A0A2K1ZZ60); chain ITRQYTFNITHKNFTRLCHTRSLVTVNGQFPGPRLVAREGDQVLVKVVNHVAENITIHWHGVRQLTSGWADGPAYVTQCPIQTGQAYTYNFTITGQRGTLLWHAHISWLRSSLYGPIIILPKLNESYPFKKPYKEIPILFGEWFNVDPEAVIAQALQTGAGPNVSDAYTINGLPGPLYNCSAKDTYKLKVKPGKTYLLRLINAALNDELFFSIANHTLTVVEADAVYVKPFEADTLLISPGQTTNVLLKTKPHLPNATFYMFAGPYFSGMGSFDNSTTAGVLVYKHPSSNNHLKKLPTLKPTLPPINATGFVANFTKKFRSLANAKFPANVPQTVDRKFFFTVGLGTNPCPKNTTCQGPNNNTKFAASINNVSFVLPSVALLQSYFFGQSNGVFTSDFPQNPTIPFNYTGTPPNNTMVSNGTKAVVLTFNTSVELVMQGTSIVTAESHPLHLHGFNFFVVGQGFGNYDPNKDPSNFNLVDPMERNTAGVPAGGWIAIRFLADNPGVWFMHCHLDVHTSWGLRMAWIVLDGPQPNQKIPPPPSDLPKC", "B2": "enzyme (Enterococcus faecalis, UniProt Q836M4); chain MEIHFEKVTSDNRKAVENLQVFAEQQAFIESMAENLKESDQFPEWESAGIYDGNQLIGYAMYGRWQDGRVWLDRFLIDQRFQGQGYGKAACRLLMLKLIEKYQTNKLYLSVYDTNSSAIRLYQQLGFVFNGELDTNGERVMEWTHQNK", "B3": "enzyme (Listeria innocua, UniProt Q927X3); chain MYFQKARLIHAELPLLAPFKTSYGELKSKDFYIIELINEEGIHGYGELEAFPLPDYTEETLSSAILIIKEQLLPLLAQRKIRKPEEIQELFSWIQGNEMAKAAVELAVWDAFAKMEKRSLAKMIGATKESIKVGVSIGLQQNVETLLQLVNQYVDQGYERVKLKIAPNKDIQFVEAVRKSFPKLSLMADANSAYNREDFLLLKELDQYDLEMIEQPFGTKDFVDHAWLQKQLKTRICLDENIRSVKDVEQAHSIGSCRAINLKLARVGGMSSALKIAEYCALNEILVWCGGMLEAGVGRAHNIALAARNEFVFPGDISASNRFFAEDIVTPAFELNQGRLKVPTNEGIGVTLDLKVLKKYTKSTEEILLNKGWS", "B4": "bglA A17S (Acetivibrio thermocellus, UniProt P26208); chain MSKITFPKDFIWGSATSAYQIEGAYNEDGKGESIWDRFSHTPGNIADGHTGDVACDHYHRYEEDIKIMKEIGIKSYRFSISWPRIFPEGTGKLNQKGLDFYKRLTNLLLENGIMPAITLYHWDLPQKLQDKGGWKNRDTTDYFTEYSEVIFKNLGDIVPIWFTHNEPGVVSLLGHFLGIHAPGIKDLRTSLEVSHNLLLSHGKAVKLFREMNIDAQIGIALNLSYHYPASEKAEDIEAAELSFSLAGRWYLDPVLKGRYPENALKLYKKKGIELSFPEDDLKLISQPIDFIAFNNYSSEFIKYDPSSESGFSPANSILEKFEKTDMGWIIYPEGLYDLLMLLDRDYGKPNIVISENGAAFKDEIGSNGKIEDTKRIQYLKDYLTQAHRAIQDGVNLKAYYLWSLLDNFEWAYGYNKRFGIVHVNFDTLERKIKDSGYWYKEVIKNNGF", "B5": "GcL (Parageobacillus, UniProt A0A023DFE8); chain MANVIKARPKLYVMDNGRMRMDKNWMIAMHNPATIHNPNAQTEFVEFPIYTVLIDHPEGKILFDTSCNPNSMGPQGRWAESTQQMFPWTATEECYLHNRLEQLKVRPEDIRYVVASHLHLDHAGCLEMFTNATIIVHEDEFNGALQCYARNQKEGAYIWADIDAWIKNNLQWRTVKRHEDNILLAEGVKVLNFGSGHAWGMLGLHVELPETGGIILASDAIYTAESYGPPIKPPGIIYDSLGYMNTVERIRRIAQETKSQVWFGHDAEQFKKFRKSTEGYYE", "note": "± gives the spread as reported.", "UniProt Q944I4, sequence (whole entry, looked up)": "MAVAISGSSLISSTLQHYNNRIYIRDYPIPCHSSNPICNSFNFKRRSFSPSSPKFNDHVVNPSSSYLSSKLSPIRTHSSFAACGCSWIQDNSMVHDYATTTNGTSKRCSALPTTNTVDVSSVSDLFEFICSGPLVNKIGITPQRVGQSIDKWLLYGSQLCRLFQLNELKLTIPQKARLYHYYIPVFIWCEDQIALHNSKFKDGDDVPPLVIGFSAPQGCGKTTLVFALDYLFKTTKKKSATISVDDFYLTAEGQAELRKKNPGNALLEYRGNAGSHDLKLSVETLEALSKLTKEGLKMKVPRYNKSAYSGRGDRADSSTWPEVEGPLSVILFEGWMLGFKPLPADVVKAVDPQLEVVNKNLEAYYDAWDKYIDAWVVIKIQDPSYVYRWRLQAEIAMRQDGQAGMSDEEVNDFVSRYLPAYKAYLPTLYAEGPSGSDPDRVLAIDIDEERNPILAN", "UniProt P30566, sequence (whole entry, looked up)": "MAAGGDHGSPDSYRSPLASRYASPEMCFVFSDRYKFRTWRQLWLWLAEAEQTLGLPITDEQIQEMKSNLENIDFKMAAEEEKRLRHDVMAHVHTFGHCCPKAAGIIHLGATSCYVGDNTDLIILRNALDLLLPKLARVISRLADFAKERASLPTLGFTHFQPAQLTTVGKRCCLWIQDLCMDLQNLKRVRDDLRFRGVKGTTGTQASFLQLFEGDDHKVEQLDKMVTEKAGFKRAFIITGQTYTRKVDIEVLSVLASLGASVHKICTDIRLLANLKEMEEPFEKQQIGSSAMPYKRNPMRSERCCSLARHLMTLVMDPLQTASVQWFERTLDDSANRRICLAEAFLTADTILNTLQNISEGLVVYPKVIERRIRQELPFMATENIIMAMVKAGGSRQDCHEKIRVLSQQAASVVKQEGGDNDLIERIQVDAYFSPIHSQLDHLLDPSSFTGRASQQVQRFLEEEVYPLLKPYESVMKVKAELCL", "UniProt Q5JHM5, sequence (whole entry, looked up)": "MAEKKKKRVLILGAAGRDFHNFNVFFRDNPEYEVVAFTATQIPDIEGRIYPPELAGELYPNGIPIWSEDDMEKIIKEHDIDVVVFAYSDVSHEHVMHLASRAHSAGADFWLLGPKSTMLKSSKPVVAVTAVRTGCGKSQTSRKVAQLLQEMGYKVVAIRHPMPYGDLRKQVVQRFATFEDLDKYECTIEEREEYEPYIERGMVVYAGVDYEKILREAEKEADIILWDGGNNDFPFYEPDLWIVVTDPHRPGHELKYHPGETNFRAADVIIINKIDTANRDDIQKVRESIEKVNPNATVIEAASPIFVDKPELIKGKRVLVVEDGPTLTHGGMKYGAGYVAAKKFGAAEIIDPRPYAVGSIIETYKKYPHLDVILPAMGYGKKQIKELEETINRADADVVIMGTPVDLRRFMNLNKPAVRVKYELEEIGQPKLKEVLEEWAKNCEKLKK", "UniProt Q9I4K6, sequence (whole entry, looked up)": "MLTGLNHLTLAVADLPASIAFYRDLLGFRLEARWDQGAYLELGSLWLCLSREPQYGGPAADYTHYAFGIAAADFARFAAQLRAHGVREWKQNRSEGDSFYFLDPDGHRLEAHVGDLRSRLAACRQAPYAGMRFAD"}
{"Molecule": "B1 (enzyme A477T)", "tested on": "COc1cc(/C=C/CO)ccc1O", "test": "steady-state kinetics", "setting": "27 °C", "endpoint": "kcat", "value": "3.54 ± 1.43 s⁻¹"}
{"Molecule": "enzyme (UniProt I4BZH5)", "tested on": "N=C(N)NCCC[C@H](N)C(=O)O", "test": "steady-state kinetics", "setting": "pH 8, 30 °C", "endpoint": "kcat", "value": "8.66 ± 0.25 s⁻¹"}
{"Molecule": "insulin human", "test": "item: NEGR1 mRNA", "test system": "uninfected mouse, brain", "setting": "i.p., dose not given", "how to read": "relative to: PBS", "endpoint": "fold change", "value": 1.26}
{"Molecule": "B2 (enzyme)", "tested on": "NCCCCNCCCN", "test": "steady-state kinetics", "setting": "pH 8, 37 °C, together with: AcCoA 1 mM", "endpoint": "kcat", "value": "0.66 ± 0.02 s⁻¹"}
{"Molecule": "fosA (Pseudomonas aeruginosa, UniProt Q9I4K6)", "tested on": "C[C@@H]1O[C@@H]1P(=O)(O)O", "test": "steady-state kinetics", "endpoint": "kcat", "value": "180 ± 6 s⁻¹"}
{"Molecule": "rCR L34A (Lodderomyces parapsilosis)", "tested on": "CC(=O)c1ccc(Cl)cc1", "test": "steady-state kinetics", "setting": "pH 7, 30 °C, together with: NADH 0.5 mM", "endpoint": "kcat", "value": "4.93 ± 0.08 s⁻¹"}
{"Molecule": "fcl (Campylobacter jejuni, UniProt Q0P8I6)", "tested on": "Nc1nc2c(ncn2[C@@H]2O[C@H](COP(=O)(O)OP(=O)(O)O[C@H]3O[C@@H](CCO)C(=O)[C@@H](O)[C@@H]3O)[C@@H](O)[C@H]2O)c(=O)[nH]1", "test": "steady-state kinetics", "setting": "pH 7.5, 25 °C, apparent", "endpoint": "kcat", "value": "3.1 ± 0.2 s⁻¹"}
{"Molecule": "B3 (enzyme)", "tested on": "O=C(O)CCC(=O)C1=CC=C[C@@H](O)[C@@H]1C(=O)O", "test": "steady-state kinetics", "setting": "pH 8, 25 °C", "endpoint": "kcat", "value": "370 ± 40 s⁻¹"}
{"Molecule": "enzyme (Thermococcus kodakarensis, UniProt Q5JHM5)", "tested on": "N=C(N)NCCC[C@H](N)C(=O)O", "test": "steady-state kinetics", "setting": "pH 7.5, 80 °C", "endpoint": "kcat", "value": "28.6 ± 0.2 s⁻¹"}
{"Molecule": "B4 (bglA A17S)", "tested on": "O=[N+]([O-])c1ccc(O[C@@H]2O[C@H](CO)[C@@H](O)[C@H](O)[C@H]2O)cc1", "test": "steady-state kinetics", "setting": "pH 5.5, 60 °C", "endpoint": "kcat", "value": "400 ± 14 s⁻¹"}
{"Molecule": "B5 (GcL)", "tested on": "CCCC(=O)N[C@H]1CCOC1=O", "test": "steady-state kinetics", "setting": "pH 8.3, together with: CoCl2 0.2 mM", "endpoint": "kcat", "value": "19.5 ± 2.6 s⁻¹"}
{"Molecule": "ADSL (Homo sapiens, UniProt P30566)", "tested on": "Nc1c(C(=O)N[C@@H](CC(=O)O)C(=O)O)ncn1[C@@H]1O[C@H](COP(=O)(O)O)[C@@H](O)[C@H]1O", "test": "steady-state kinetics", "setting": "pH 7.4, 25 °C", "endpoint": "kcat", "value": "90.2 ± 1.9 s⁻¹"}
{"Molecule": "enzyme (Arabidopsis thaliana, UniProt Q944I4)", "tested on": "Nc1ncnc2c1ncn2[C@@H]1O[C@H](COP(=O)(O)OP(=O)(O)OP(=O)(O)O)[C@@H](O)[C@H]1O", "test": "steady-state kinetics", "setting": "pH 7.8, 30 °C", "endpoint": "kcat", "value": "84.8 ± 2.11 s⁻¹"}
{"Molecule": "pdc E473D (Zymomonas mobilis)", "tested on": "CC(=O)C(=O)O", "test": "steady-state kinetics", "setting": "pH 6, 30 °C", "endpoint": "kcat", "value": "0.1 ± 0.003 s⁻¹"}
{"note": "Repeated from above:"}
{"Molecule": "insulin human", "test": "item: NEGR1 mRNA", "test system": "uninfected mouse, brain", "setting": "i.p., dose not given", "how to read": "relative to: PBS", "endpoint": "fold change", "value": 1.26}
{"Molecule": "B2 (enzyme)", "tested on": "NCCCCNCCCN", "test": "steady-state kinetics", "setting": "pH 8, 37 °C, together with: AcCoA 1 mM", "endpoint": "kcat", "value": "0.66 ± 0.02 s⁻¹"}
